Assay results gathered from unrelated publications.
Each numbered part is a random draw from the data of one study; scales do not carry over between parts. “And” joins repeats or separate records; there may be more than shown.
Chain of UniProt Q86Y07 (whole entry, looked up): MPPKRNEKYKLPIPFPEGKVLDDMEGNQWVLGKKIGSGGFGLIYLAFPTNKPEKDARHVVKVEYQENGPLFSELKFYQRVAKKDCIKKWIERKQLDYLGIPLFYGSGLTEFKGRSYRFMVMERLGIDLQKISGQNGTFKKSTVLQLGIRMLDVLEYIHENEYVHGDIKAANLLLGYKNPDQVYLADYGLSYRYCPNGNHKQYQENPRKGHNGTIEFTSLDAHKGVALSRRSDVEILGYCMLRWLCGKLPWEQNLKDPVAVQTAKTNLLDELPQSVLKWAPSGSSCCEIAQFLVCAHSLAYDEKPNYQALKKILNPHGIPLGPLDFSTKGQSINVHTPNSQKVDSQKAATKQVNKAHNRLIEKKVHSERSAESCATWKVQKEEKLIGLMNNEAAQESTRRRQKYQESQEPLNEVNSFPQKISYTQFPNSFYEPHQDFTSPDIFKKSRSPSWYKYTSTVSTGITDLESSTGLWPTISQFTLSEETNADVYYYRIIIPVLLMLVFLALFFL
Chain of UniProt Q6P2M8 (whole entry, looked up): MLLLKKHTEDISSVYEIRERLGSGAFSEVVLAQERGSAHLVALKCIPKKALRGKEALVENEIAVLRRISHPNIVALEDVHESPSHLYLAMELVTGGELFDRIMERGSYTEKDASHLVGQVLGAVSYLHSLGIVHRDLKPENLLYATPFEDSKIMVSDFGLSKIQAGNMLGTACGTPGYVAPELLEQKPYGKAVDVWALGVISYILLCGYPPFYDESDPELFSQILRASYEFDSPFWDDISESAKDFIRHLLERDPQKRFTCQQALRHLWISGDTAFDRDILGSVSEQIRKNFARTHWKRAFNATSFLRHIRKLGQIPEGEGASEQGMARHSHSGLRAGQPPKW
Chain of UniProt P57059 (whole entry, looked up): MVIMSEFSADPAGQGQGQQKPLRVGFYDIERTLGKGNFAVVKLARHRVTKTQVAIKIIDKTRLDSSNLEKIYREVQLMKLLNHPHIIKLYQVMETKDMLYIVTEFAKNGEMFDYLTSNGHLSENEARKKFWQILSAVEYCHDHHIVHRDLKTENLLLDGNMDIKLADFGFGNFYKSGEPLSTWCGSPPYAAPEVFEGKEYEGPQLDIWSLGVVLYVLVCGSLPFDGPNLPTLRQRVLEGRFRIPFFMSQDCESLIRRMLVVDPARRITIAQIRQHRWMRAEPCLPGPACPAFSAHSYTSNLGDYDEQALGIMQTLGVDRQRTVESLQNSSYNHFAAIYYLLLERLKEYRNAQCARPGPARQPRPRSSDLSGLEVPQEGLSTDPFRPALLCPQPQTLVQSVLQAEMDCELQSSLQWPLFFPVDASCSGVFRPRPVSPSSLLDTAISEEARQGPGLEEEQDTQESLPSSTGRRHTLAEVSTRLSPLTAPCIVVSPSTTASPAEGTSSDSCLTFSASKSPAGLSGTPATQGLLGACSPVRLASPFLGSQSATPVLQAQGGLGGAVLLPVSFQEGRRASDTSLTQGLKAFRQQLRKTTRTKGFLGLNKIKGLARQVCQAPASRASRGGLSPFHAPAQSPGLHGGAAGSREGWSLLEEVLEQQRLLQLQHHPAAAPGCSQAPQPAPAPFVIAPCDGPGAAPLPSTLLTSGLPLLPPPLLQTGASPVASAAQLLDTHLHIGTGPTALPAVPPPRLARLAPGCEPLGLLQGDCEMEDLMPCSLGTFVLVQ
Chain of UniProt Q9UK32 (whole entry, looked up): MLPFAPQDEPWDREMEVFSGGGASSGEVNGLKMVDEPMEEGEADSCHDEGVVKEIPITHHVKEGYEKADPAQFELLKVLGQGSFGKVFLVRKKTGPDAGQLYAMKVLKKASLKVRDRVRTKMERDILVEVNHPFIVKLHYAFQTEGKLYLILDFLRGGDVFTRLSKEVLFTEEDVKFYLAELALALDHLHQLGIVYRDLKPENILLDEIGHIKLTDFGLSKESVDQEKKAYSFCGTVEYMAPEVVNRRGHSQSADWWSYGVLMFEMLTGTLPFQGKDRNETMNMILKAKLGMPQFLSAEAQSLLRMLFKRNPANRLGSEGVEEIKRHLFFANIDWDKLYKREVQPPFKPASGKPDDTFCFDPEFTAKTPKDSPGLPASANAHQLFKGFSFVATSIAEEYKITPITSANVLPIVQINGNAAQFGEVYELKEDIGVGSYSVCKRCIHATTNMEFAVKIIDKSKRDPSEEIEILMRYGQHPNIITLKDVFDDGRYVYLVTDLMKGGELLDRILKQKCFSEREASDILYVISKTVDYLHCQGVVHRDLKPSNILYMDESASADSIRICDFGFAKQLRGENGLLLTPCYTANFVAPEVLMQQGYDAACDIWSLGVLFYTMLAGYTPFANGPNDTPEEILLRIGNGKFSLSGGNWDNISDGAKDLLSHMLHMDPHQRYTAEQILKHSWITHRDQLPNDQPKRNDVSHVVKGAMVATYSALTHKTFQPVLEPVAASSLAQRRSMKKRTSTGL
Chain of UniProt P31751 (whole entry, looked up): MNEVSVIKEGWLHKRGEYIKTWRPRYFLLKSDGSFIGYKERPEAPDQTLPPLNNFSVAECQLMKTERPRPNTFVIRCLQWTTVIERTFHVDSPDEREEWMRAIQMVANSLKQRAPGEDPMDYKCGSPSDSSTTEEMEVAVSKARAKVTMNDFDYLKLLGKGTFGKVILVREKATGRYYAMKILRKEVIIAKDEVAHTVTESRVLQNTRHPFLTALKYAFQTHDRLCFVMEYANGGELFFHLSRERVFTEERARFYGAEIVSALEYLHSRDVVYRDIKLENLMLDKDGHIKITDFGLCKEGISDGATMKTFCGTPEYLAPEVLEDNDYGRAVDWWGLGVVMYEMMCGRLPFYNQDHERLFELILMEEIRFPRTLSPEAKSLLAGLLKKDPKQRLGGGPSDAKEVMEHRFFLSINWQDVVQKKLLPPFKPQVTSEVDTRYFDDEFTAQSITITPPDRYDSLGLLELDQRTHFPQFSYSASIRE

Set 1 — read-out: thermal unfolding; method: differential scanning fluorimetry; concentration: 5.5 µM; direction: higher = more unfolded
SMILES: C[C@@H]1CN(c2ccc(-c3cc(C(=O)NCCOCCOCCOCCOCCNC(=O)/C=C/c4[nH]cc(C(=O)N[C@@H](CC(N)=O)c5ccc(F)c(Cl)c5)c4-c4ccc(Cl)cc4F)ccc3F)cc2NC(=O)c2c[nH]c(=O)cc2C(F)(F)F)C[C@H](C)N1C
WDR5: WD repeat-containing protein 5 (WDR5, Homo sapiens, UniProt P61964)
DCAF1: DDB1- and CUL4-associated factor 1 (DCAF1, Homo sapiens, UniProt Q9Y4B6)
Chain of UniProt Q9Y4B6 (whole entry, looked up): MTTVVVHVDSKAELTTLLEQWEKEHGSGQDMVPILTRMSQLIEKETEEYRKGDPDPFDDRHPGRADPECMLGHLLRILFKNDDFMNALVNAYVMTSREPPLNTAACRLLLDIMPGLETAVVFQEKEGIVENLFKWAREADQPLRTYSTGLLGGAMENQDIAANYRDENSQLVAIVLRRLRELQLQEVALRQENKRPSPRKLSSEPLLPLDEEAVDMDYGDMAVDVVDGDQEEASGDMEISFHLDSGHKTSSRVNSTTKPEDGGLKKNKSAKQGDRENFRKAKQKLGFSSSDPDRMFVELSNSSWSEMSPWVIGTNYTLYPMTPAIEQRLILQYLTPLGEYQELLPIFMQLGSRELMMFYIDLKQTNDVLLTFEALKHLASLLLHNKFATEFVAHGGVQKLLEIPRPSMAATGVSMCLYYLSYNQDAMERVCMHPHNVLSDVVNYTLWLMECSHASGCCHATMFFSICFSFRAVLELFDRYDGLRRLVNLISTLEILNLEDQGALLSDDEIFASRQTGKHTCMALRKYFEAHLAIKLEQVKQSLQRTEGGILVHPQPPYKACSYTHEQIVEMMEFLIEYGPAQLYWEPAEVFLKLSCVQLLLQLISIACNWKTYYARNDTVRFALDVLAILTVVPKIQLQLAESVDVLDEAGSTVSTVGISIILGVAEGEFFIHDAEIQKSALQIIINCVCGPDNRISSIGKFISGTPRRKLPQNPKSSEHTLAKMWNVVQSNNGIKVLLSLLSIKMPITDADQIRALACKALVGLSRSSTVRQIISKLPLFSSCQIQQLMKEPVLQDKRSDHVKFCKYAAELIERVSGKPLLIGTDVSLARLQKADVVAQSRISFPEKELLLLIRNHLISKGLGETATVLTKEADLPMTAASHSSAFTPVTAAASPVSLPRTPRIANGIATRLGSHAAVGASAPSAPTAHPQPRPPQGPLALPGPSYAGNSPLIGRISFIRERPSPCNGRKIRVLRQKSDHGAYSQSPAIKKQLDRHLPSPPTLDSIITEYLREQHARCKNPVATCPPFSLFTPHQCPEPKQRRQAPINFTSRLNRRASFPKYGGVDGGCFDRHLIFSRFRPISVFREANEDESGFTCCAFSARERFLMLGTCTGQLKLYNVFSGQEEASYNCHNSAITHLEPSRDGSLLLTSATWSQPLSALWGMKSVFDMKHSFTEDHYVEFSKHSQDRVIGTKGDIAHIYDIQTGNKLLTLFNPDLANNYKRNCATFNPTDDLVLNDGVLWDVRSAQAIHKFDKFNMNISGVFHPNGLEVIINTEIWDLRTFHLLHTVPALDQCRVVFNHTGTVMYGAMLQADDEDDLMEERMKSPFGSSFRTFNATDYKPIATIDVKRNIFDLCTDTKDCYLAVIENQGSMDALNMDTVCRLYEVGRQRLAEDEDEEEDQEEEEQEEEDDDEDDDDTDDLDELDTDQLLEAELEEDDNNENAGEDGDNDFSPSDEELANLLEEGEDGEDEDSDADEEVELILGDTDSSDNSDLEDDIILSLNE
It gave 13000 a.u. for “SYPRO Orange fluorescence” (WDR5; 33.4 °C).
The “SYPRO Orange fluorescence” was 15500 a.u. (WDR5; 60.61 °C).
WDR5; 36.8 °C — “SYPRO Orange fluorescence”: 13600 a.u.
It gave 11700 a.u. for “SYPRO Orange fluorescence” (DCAF1; 40.4 °C).
The “SYPRO Orange fluorescence” was 15900 a.u. (WDR5; 47.8 °C).
The “SYPRO Orange fluorescence” was 50200 a.u. (DCAF1; 74.81 °C).
It gave 12800 a.u. for “SYPRO Orange fluorescence” (WDR5; 31.4 °C).
For WDR5; 92.81 °C: “SYPRO Orange fluorescence” read 47700 a.u.

Set 2 — concentration: 1 µM
Compound: COc1cc(-c2nc3ccc(C(=O)NCCCN4CCN(c5cccc(C)c5C)CC4)cc3n2C2CCC2)cc(OC)c1OC
PNCK (Homo sapiens, UniProt Q6P2M8); binding, competition with immobilised ligand — remaining binding: 93%.
The remaining binding was 75% (VRK2 (Homo sapiens, UniProt Q86Y07); binding, competition with immobilised ligand).
For TRPM6 (Homo sapiens, UniProt Q9BX84); binding, competition with immobilised ligand: remaining binding read 100%.
For EPHA5 (Homo sapiens, UniProt P54756); binding, competition with immobilised ligand: remaining binding read 91%.
The remaining binding was 100% (Ribosomal protein S6 kinase alpha-6, C-terminal kinase domain (RPS6KA6, Homo sapiens, UniProt Q9UK32); binding, competition with immobilised ligand).
The remaining binding was 100% (AKT2 (Homo sapiens, UniProt P31751); binding, competition with immobilised ligand).
It gave 91% for remaining binding (MAP3K20 (Homo sapiens, UniProt Q9NYL2); binding, competition with immobilised ligand).
Tyrosine-protein kinase ABL1, non-phosphorylated (ABL1, Homo sapiens, UniProt P00519, Q252H); binding, competition with immobilised ligand — remaining binding: 81%.
It gave 87% for remaining binding (SIK1 (Homo sapiens, UniProt P57059); KINOMEscan; relative to: control).
For Tyrosine-protein kinase JAK1, JH2 (JAK1, Homo sapiens, UniProt P23458); binding, competition with immobilised ligand: remaining binding read 88%.

Set 3 — mode: degrader; method: automated immunoblot (Jess); time: 24 h
Structure (SMILES): Cc1ccc(O)c(C)c1-c1cnc2[nH]c(-c3cnc(N4CCC5(CC4)CC(N4CCN(c6ccc(N[C@H]7CCC(=O)NC7=O)cc6F)CC4)CO5)nc3)cc2c1C#N (single isomer, unassigned)
Target: Membrane-associated tyrosine- and threonine-specific cdc2-inhibitory kinase (PKMYT1, Homo sapiens, UniProt Q99640)
Chain of UniProt Q99640 (whole entry, looked up): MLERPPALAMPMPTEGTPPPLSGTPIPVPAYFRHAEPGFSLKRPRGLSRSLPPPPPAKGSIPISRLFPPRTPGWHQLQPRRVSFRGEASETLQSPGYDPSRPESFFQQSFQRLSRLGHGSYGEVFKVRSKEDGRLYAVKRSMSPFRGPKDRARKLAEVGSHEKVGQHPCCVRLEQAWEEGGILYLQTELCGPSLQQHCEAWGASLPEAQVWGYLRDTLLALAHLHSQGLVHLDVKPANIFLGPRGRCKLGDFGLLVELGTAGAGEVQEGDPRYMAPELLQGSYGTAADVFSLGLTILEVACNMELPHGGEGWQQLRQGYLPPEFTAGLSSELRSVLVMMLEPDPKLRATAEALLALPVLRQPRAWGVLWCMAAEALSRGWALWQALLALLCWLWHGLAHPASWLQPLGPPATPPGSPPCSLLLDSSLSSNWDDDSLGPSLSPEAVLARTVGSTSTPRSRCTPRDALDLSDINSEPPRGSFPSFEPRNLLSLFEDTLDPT
The degradation was 90% (HCC1569; 37.04 nM).
For 1.37 nM: degradation read 68.8% and 65.7%.
HCC1569; 4.12 nM — degradation: 81.4%.

Mixed results — organism: Arabidopsis thaliana; strain: Col-0
`CCN1C(=O)C(O)(C(=O)O)Oc2cc(F)ccc21` (stereo not shown) has a hypocotyl length of 2.05 cm (6.25 µg/mL, seed germination, repetition mean).
`O=C(O)C1(O)Oc2cc(Br)ccc2N(Cc2ccccc2)C1=O` (stereo not shown) gave a hypocotyl length of 0.85 cm and 0.79 cm and 0.81 cm and 0.82 cm (100 µg/mL, seed germination, single repetition).
`CCCN1C(=O)C(O)(C(=O)O)Oc2cc(F)ccc21` (stereo not shown) has a hypocotyl length of 2.3 cm and 2.43 cm and 2.31 cm and 2.21 cm (3.125 µg/mL, seed germination, single repetition).
The hypocotyl length of `CN1C(=O)C(O)(C(=O)O)Oc2cc(F)ccc21` (stereo not shown) is reported as 2.24 cm (3.125 µg/mL, seed germination, repetition mean).

Repeated from above (set 2):
The remaining binding was 75% (VRK2 (Homo sapiens, UniProt Q86Y07); binding, competition with immobilised ligand).
For TRPM6 (Homo sapiens, UniProt Q9BX84); binding, competition with immobilised ligand: remaining binding read 100%.
For EPHA5 (Homo sapiens, UniProt P54756); binding, competition with immobilised ligand: remaining binding read 91%.
The remaining binding was 100% (Ribosomal protein S6 kinase alpha-6, C-terminal kinase domain (RPS6KA6, Homo sapiens, UniProt Q9UK32); binding, competition with immobilised ligand).
